Experimental data collected from several papers.
Each line is one published result; not all experiments were run side by side.
Cell line: SK-OV-3

`C=CCc1ccc(OCc2nnc(SCC(=O)N3CCCCC3)o2)c(OC)c1` gave an IC50 of 181 µM (cell growth or viability, MTT; 72 h).
For `CCCCCCCC(=O)NCCCC[C@H](N)C(=O)NCCCNCCCCNCCCN`, the EC50 was 30 µM (cell growth; 6 days, added: DFMO 5.0 mM, spermidine 0.5 µM, aminoguanidine 1.0 mM).
With `CC(=O)c1c(C)c2cnc(Nc3ccc(N4CCNCC4)cn3)nc2n(C2CCCC2)c1=O` the IC50 was 1.98 µM (cell growth or viability; 6 days).
`C=CC(=O)N1CCC(Cc2cccc(C(=O)N3CCN(c4nc(-c5cnc(N)nc5C(F)F)nc(N5CCOCC5)n4)CC3)c2)CC1` has an IC50 of 0.041 µM (Akt phosphorylation, inhibitor, in-cell western, refers to: Akt pSer473; 1 h).
For `C=CCc1ccc(OCc2nnc(SCC(=O)Nc3cccc(C)c3)o2)c(OC)c1`, the IC50 was 65.4 µM (cell growth or viability, MTT; 72 h).
For `CCC(=O)N1CCC(COCC(=O)N2CCN(c3nc(-c4cnc(N)nc4C(F)F)nc(N4CCOC[C@@H]4C)n3)CC2)CC1`, the IC50 was 0.048 µM (Akt phosphorylation, inhibitor, in-cell western, refers to: Akt pSer473; 1 h).
For `N.N.O=C([O-])C1(C(=O)[O-])CCC1.[Pt+2]`, “decrease of cell viability” read about 40% (platinum resistant; 56.6 µM, 72 h).
With `CC1(C)CC(C)(C)c2cc(N/C(S)=N/c3ccc([N+](=O)[O-])cc3)ccc2S1` the EC50 was 4 to 5 µM (refers to: cyclin D1; 24 h; decrease).

Some of these lines once more:
With `CC1(C)CC(C)(C)c2cc(N/C(S)=N/c3ccc([N+](=O)[O-])cc3)ccc2S1` the EC50 was 4 to 5 µM (refers to: cyclin D1; 24 h; decrease).
